Published values collected from several papers.
± gives the spread as reported.
Uncharacterized hydrolase SAUSA300_2518: Uncharacterized hydrolase SAUSA300_2518 (Staphylococcus aureus, UniProt Q2FDS6)
Chain of UniProt Q2FDS6 (whole entry, looked up): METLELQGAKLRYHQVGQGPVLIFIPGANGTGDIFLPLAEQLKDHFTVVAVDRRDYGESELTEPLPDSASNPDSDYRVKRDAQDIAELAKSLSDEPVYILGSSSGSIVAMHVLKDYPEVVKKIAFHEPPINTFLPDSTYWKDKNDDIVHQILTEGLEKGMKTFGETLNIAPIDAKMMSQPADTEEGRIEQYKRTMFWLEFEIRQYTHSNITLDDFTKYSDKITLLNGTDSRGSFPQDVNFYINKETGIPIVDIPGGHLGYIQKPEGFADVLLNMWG
CXCR4: C-X-C chemokine receptor type 4 (CXCR4, Homo sapiens, UniProt P61073)
Chain of UniProt P61073 (whole entry, looked up): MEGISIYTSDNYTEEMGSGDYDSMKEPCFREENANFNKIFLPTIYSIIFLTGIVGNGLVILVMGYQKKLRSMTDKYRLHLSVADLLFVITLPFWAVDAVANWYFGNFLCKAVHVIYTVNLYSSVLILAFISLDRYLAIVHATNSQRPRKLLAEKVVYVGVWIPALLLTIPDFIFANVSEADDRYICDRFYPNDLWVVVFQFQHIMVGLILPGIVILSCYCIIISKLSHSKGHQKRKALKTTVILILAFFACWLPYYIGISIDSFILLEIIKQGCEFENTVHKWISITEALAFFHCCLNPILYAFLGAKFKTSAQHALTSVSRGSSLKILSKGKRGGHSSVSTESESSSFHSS
Formate-nitrite transporter: Formate-nitrite transporter (Plasmodium falciparum, UniProt O77389)
Chain of UniProt O77389 (whole entry, looked up): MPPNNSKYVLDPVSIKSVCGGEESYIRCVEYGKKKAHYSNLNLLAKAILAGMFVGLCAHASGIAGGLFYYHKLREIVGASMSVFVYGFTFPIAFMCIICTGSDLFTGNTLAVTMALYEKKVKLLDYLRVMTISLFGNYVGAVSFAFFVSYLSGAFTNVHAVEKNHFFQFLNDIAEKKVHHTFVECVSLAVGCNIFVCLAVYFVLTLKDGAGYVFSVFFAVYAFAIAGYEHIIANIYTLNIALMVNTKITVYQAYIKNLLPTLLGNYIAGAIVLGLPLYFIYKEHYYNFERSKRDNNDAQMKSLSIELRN
SIRT5: NAD-dependent protein deacylase sirtuin-5, mitochondrial (SIRT5, Homo sapiens, UniProt Q9NXA8)
Chain of UniProt Q9NXA8 (whole entry, looked up): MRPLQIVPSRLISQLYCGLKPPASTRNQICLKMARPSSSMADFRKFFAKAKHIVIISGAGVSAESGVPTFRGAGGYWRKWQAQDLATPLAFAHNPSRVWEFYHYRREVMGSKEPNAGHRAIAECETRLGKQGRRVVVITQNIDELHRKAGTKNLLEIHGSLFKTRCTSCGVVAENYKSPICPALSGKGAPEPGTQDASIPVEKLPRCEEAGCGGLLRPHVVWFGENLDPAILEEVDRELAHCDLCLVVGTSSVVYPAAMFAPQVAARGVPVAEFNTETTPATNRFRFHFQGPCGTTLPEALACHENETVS
blaNDM-1: Metallo-beta-lactamase type 2 (blaNDM-1, Klebsiella pneumoniae, UniProt C7C422)
Chain of UniProt C7C422 (whole entry, looked up): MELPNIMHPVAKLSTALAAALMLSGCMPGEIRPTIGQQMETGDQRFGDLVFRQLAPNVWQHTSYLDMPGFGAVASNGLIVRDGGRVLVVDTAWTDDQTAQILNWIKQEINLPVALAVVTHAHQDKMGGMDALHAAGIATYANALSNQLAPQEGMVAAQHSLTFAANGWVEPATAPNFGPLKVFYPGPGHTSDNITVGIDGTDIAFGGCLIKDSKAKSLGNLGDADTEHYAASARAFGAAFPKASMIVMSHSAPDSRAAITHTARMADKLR
lasR: Transcriptional activator protein LasR (lasR, Pseudomonas aeruginosa, UniProt P25084)
Chain of UniProt Q99436 (whole entry, looked up): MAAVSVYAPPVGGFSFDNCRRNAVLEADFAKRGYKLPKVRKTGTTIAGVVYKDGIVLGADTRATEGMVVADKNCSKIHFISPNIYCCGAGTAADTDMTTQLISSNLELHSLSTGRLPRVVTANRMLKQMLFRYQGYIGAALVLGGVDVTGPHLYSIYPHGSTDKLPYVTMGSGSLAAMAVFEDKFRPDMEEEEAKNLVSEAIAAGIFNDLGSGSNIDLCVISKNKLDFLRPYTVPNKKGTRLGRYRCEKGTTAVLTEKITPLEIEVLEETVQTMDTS
Chain of UniProt P25084 (whole entry, looked up): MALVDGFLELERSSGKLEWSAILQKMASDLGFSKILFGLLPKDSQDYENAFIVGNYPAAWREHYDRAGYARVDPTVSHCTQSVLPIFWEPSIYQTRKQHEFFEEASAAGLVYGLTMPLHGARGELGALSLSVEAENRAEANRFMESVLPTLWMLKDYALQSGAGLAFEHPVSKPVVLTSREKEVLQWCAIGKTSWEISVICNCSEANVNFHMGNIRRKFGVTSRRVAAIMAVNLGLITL
Chain of UniProt Q9QUR6 (whole entry, looked up): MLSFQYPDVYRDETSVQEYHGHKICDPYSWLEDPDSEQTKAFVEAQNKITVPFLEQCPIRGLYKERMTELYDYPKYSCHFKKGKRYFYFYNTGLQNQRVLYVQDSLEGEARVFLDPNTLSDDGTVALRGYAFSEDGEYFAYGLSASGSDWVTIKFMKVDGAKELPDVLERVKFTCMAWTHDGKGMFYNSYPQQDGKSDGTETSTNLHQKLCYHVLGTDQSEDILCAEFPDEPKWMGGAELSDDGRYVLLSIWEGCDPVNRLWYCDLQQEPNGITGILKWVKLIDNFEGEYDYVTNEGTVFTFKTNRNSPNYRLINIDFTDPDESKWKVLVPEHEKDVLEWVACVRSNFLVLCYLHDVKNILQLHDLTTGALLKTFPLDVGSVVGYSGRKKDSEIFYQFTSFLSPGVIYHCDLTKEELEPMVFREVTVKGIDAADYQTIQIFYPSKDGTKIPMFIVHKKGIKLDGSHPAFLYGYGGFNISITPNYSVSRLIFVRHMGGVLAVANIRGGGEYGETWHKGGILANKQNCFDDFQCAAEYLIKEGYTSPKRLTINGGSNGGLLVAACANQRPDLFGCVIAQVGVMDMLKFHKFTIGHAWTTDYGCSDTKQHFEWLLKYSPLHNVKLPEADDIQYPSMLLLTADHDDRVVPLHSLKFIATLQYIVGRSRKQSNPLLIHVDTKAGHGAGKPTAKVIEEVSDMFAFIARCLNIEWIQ
Chain of UniProt Q8IXJ6 (whole entry, looked up): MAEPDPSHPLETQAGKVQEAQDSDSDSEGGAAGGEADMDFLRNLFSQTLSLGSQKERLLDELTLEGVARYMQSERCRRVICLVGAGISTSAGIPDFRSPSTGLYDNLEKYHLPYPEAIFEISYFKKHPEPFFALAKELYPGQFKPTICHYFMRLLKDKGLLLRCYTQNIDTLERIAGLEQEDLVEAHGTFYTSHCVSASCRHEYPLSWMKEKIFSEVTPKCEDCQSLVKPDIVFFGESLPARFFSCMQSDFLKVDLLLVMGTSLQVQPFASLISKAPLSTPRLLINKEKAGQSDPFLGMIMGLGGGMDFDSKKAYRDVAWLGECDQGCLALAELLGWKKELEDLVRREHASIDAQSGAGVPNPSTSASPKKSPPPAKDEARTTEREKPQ
Chain of UniProt P42336 (whole entry, unmodified, looked up): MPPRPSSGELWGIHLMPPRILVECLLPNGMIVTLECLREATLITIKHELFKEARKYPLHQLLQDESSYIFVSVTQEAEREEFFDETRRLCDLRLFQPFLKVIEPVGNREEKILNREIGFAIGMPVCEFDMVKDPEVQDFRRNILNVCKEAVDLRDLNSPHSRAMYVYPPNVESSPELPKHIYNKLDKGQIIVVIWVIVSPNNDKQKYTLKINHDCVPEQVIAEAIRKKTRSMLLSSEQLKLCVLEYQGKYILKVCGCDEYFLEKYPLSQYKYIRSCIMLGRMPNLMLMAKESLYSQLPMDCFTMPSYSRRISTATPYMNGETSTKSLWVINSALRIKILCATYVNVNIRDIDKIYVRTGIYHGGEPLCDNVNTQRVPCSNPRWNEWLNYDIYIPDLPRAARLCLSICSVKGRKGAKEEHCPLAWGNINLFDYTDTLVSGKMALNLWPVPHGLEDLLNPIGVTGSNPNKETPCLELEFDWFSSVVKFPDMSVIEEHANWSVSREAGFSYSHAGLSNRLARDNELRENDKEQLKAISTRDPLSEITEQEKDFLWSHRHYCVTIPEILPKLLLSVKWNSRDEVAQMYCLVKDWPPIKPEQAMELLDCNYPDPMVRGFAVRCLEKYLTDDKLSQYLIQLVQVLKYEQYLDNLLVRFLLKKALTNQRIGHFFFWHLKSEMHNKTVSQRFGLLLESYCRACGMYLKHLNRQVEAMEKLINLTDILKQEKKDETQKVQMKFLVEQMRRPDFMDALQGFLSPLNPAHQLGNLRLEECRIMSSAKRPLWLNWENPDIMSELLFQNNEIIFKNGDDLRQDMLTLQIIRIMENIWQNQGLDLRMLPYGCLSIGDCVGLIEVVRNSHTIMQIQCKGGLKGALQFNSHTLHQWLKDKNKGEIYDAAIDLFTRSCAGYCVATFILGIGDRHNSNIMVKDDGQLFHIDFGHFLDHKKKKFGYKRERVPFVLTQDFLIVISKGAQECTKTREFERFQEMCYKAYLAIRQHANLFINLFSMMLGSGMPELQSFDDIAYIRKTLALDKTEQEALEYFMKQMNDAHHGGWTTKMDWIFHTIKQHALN
Chain of UniProt P97583 (whole entry, looked up): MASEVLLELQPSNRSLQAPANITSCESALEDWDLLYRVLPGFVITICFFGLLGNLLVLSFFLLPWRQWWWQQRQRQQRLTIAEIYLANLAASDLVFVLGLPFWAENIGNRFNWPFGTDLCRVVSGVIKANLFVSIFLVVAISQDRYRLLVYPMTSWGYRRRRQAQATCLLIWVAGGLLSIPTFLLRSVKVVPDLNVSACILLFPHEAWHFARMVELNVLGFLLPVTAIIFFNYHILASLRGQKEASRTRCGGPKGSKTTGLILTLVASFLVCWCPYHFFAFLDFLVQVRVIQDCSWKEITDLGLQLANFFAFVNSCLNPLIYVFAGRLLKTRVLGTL
Chain of UniProt P49720 (whole entry, looked up): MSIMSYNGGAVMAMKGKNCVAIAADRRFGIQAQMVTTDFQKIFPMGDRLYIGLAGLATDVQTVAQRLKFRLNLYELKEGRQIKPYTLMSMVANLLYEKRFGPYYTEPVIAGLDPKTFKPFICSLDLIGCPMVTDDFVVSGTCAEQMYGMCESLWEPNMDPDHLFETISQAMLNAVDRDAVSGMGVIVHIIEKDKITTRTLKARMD
Chain of UniProt P0A6M2 (whole entry, unmodified, looked up): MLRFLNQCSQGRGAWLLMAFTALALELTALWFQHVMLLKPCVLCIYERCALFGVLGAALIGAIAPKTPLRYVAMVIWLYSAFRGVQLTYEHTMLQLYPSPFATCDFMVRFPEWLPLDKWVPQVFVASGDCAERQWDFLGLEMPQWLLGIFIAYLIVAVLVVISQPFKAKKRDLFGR

CC1(C)OB(c2cnc3c(c2)CC(=O)N3)OC1(C)C — IC50 (Uncharacterized hydrolase SAUSA300_2518; enzyme activity, inhibitor): > 50 µM
CC(C)C[C@@H](N)C(=O)NCC(=O)N[C@H](C)C(=O)N[C@H](CO)C(=O)N[C@H](Cc1c[nH]c2ccccc12)C(=O)N[C@H](Cc1c[nH]cn1)C(=O)N[C@H](CCCNC(=N)N)C(=O)N1CCC[C@@H]1C(=O)N[C@H](CC(=O)O)C(=O)N[C@H](CCCCN)C(=O)N[C@H](CCCCN)C(=O)N[C@H](CCCNC(=N)N)C(=O)NCCCCCC(=O)N[C@H](CCCCN)C(=O)N[C@H](CCCNC(=N)N)C(=O)N[C@H](CCCCN)C(=O)N[C@H](CCC(N)=O)C(=O)N[C@H](CCCNC(=N)N)C(=O)NCC(=O)N1CCC[C@@H]1C(=O)NCC(=O)N[C@H](CCCNC(=N)N)C(=O)N[C@H](C)C(=O)N[C@H](Cc1ccccc1)C(N)=O — IC50 (CXCR4; antagonist; concentration not given): 0.0434 µM
Nc1ccc(C(=O)C=C(O)C(F)(F)C(F)(F)F)cn1 — IC50 (Formate-nitrite transporter; L-lactate transport, inhibitor, fluorescence; yeast; pH 6.8, with: L-lactate 1 mM): 0.025 ± 0.003 µM
O=C(CCC(=O)NC(CCCCNC(=S)NCCc1noc(=O)[nH]1)C(=O)NC(Cc1c[nH]c2ccccc12)C(=O)NC1CCC1)NCCOCCOCCCCCCCl (centres unmarked) — IC50 (SIRT5; enzyme activity, inhibitor): 0.152 ± 0.04 µM
CCNc1ccc(C(=O)C=C(O)C(F)(F)C(F)(F)F)cn1 — IC50 (Formate-nitrite transporter; L-lactate transport, inhibitor, fluorescence; yeast; pH 6.8, with: L-lactate 1 mM): 0.039 ± 0.009 µM
CCCC[C@@H]1NC(=O)[C@@H](CCC(N)=O)NC(=O)[C@H]2CCCN2C(=O)[C@H]([C@@H](C)CC)NC(=O)[C@@H]2C[C@@H](O)CN2C(=O)[C@H](Cc2ccccc2CN)NC(=O)[C@@H]2CCCN2C(=O)[C@@H](CS)NC1=O — IC50 (blaNDM-1; enzyme activity, inhibitor, absorbance): 39.1 µM
CC(C)C[C@@H](N)C(=O)NCC(=O)N[C@H](C)C(=O)N[C@H](CO)C(=O)N[C@H](Cc1c[nH]c2ccccc12)C(=O)N[C@H](Cc1c[nH]cn1)C(=O)N[C@H](CCCNC(=N)N)C(=O)N1CCC[C@@H]1C(=O)N[C@H](CC(=O)O)C(=O)N[C@H](CCCCN)C(=O)N[C@H](CS)C(=O)N[C@H](CS)C(=O)N[C@H](CC(C)C)C(=O)NCC(=O)N[C@H](Cc1ccc(O)cc1)C(=O)N[C@H](CCC(N)=O)C(=O)N[C@H](CCCCN)C(=O)N[C@H](CCCNC(=N)N)C(=O)N1CCC[C@@H]1C(=O)N[C@H](CC(C)C)C(=O)N1CCC[C@@H]1C(N)=O — IC50 (CXCR4; ligand displacement): 0.255 µM
COc1ccc(C(=O)C=C(O)C(F)(F)C(F)(F)F)c(O)c1 — IC50 (Formate-nitrite transporter; L-lactate transport, inhibitor, fluorescence; yeast; pH 6.8, with: L-lactate 1 mM): 0.026 ± 0.004 µM
CCCCCCCCCCCCn1nnc(CC(=O)O)n1 — IC50 (lasR; reporter gene, antagonist; Escherichia coli, JLD271 with LasR plasmid; with: OdDHL 2 nM): no inhibition
COC(F)(F)C(F)(F)C(O)=CC(=O)c1cccnc1 — IC50 (Formate-nitrite transporter; L-lactate transport, inhibitor, fluorescence; yeast; pH 6.8, with: L-lactate 1 mM): 0.133 ± 0.019 µM
O=S(=O)(O)C(F)(F)C(F)(F)C(F)(F)C(F)(F)C(F)(F)C(F)(F)C(F)(F)C(F)(F)F — IC50 (FABP4 (Homo sapiens, UniProt P15090); ligand displacement, fluorescence; pH 7.5): 11.1 µM
N=C(N)NCCC[C@H](NC(=O)[C@H](CCCCNC(=O)c1cncc(OS(=O)(=O)F)c1)NS(=O)(=O)c1cccc(F)c1)C(=O)NC1CCC1 — IC50 (SIRT5; inhibitor, fluorogenic; pre-incubation 24 h, with: NAD+ 500 µM): 6.1 ± 0.3 µM
CSCC[C@H](NC(=O)[C@@H](N)CCCNC(=N)N)C(=O)N[C@@H](CO)C(=O)N[C@@H](C)C(=O)N1CCC[C@H]1C(=O)N[C@@H](CO)C(=O)N[C@H](C(=O)NCC(=O)NCC(=O)N[C@H](C(=O)O)C(C)C)[C@@H](C)O — IC50 (HLA class I histocompatibility antigen, A alpha chain, allele A*02:02 (Homo sapiens, UniProt P04439); binding): 29.4 µM
O=C(CCCCCCCCCN=C=S)CC(=O)N[C@H]1CCOC1=O — IC50 (lasR; reporter gene, antagonist; Escherichia coli, JLD271 with LasR plasmid; with: OdDHL 2 nM): no inhibition
CCC(C(=O)Nc1ccccc1C)n1cccc2nc(SCc3ccc(F)cc3)nc1-2 (centres unmarked) — IC50 (Prothrombin (F2, Homo sapiens, UniProt P00734); enzyme activity, inhibitor): > 100 µM
CC(C)C[C@@H]1NC(=O)[C@@H]2CCCN2C(=O)[C@@H](CS)NC(=O)[C@H](Cc2ccc(O)cc2)NC(=O)[C@@H](CCCNC(=N)N)NC(=O)[C@@H](CCCNC(=N)N)NC(=O)[C@H](CCC(=O)O)NC(=O)[C@@H]2CCCN2C1=O — IC50 (blaNDM-1; enzyme activity, inhibitor, absorbance): 6.05 µM
C[C@H](NC(=O)[C@@H](N)CCC(=O)O)C(=O)N[C@@H](Cc1ccc(O)cc1)C(=O)N[C@@H](CCC(N)=O)C(=O)O — IC50 (MAOA (Homo sapiens, UniProt P21397); enzyme activity, inhibitor, fluorescence): 3220 µM
CSCC[C@@H]1NC(=O)[C@H](Cc2ccccc2)NC(=O)[C@H](NC(=O)[C@H](C)N)CSC(=O)[C@H](C(C)C)NC(=O)[C@H](Cc2ccccc2)NC1=O — IC50 (Histidine kinase AgrC (Listeria monocytogenes, UniProt A8E0G3); agr signalling): 3.97 µM
N=C(N)NCCC[C@@H]1NC(=O)[C@H](CCCNc2ccc([N+](=O)[O-])cc2[N+](=O)[O-])NC(=O)[C@@H](Cc2ccc(O)cc2)NC(=O)CNC(=O)[C@H](Cc2ccc3ccccc3c2)NC1=O — IC50 (CXCR4): 0.0977 ± 0.0103 µM
C[n+]1ccn(C(=O)N2CCOCC2)c1 — IC50 (Uncharacterized hydrolase SAUSA300_2518; enzyme activity, inhibitor): > 50 µM
CCCCNc1c(Cl)cnn(-c2ccccc2)c1=O — IC50 (Disulfide bond formation protein B (Escherichia coli, UniProt P0A6M2, C49V/C8A); enzyme activity, inhibitor): 6.69 to 10.3 µM
CNC(=S)NCCCC[C@H](NS(=O)(=O)c1ccc(C(=O)NCc2cn(CCCNc3ccc([N+](=O)[O-])c4nonc34)nn2)cc1)C(=O)N[C@@H](CCCNC(=N)N)C(=O)N[C@@H](CC1CCCCC1)C(=O)N[C@H](CCCCN)C(=O)N[C@@H](CC1CCCCC1)C(N)=O — IC50 (SIRT2 (Homo sapiens, UniProt Q8IXJ6); enzyme activity, inhibitor, fluorescence): 0.33 µM
CC(C)(COP(=O)(O)OP(=O)(O)OC[C@H]1O[C@@H](n2cnc3c(N)ncnc32)[C@H](O)[C@@H]1OP(=O)(O)O)[C@@H](O)C(=O)NCCC(=O)NCCSCC(=O)N[C@@H](CO)C(=O)NCC(=O)N[C@@H](CCCNC(=N)N)C(=O)N[C@@H](CCCNC(=N)N)C(=O)N[C@@H](CCCNC(=N)N)C(=O)N[C@@H](CCCNC(=N)N)C(=O)N[C@@H](CCCNC(=N)N)C(=O)N[C@@H](CCCNC(=N)N)C(N)=O — IC50 (NAA40 (Homo sapiens, UniProt Q86UY6); enzyme activity, inhibitor, fluorescence): 0.674 µM
C#CCNC(=O)c1ccc([P+](CCCC(=O)N[C@@H](CCCCNC(=O)c2cncc(OS(=O)(=O)F)c2)C(=O)N[C@@H](CCCNC(=N)N)C(=O)NC2CCC2)(c2ccccc2)c2ccccc2)cc1 — IC50 (SIRT5; inhibitor, fluorogenic; pre-incubation 16 h, with: NAD+ 500 µM): 6.2 ± 0.4 µM
CC(C)C[C@@H]1NC(=O)[C@@H]2CCCN2C(=O)[C@@H](CS)NC(=O)[C@H](Cc2ccc(O)cc2)NC(=O)[C@@H](CCCNC(=N)N)NC(=O)[C@@H](CCCNC(=N)N)NC(=O)C(C)(C)NC(=O)[C@@H]2CCCN2C1=O — IC50 (blaNDM-1; enzyme activity, inhibitor, absorbance): 1.84 µM
COCCCC1CCCCN1C(=O)Oc1ccc([N+](=O)[O-])cc1 (centres unmarked) — IC50 (Prolyl endopeptidase (Mus musculus, UniProt Q9QUR6); enzyme activity, inhibitor, fluorescence): > 100 µM
CC[C@H](C)[C@H](NC(=O)[C@H](CCCNC(=N)N)NC(=O)[C@H](C)NC(=O)[C@@H](N)CC(C)C)C(=O)N[C@@H](CCCNC(=N)N)C(=O)N1CCC[C@H]1C(=O)N[C@@H](CCCCN)C(=O)N[C@@H](CC(C)C)C(=O)N[C@@H](CCCCN)C(=O)O — IC50 (B1 bradykinin receptor (Rattus norvegicus, UniProt P97583); ligand displacement, radioligand; cell membranes): 0.1 µM
Cc1ccc2c(n1)c(-c1cccc(S(C)(=O)=O)c1)c(C)n2C/C(F)=C/CN — IC50 (Cytochrome P450 2C9 (CYP2C9, Homo sapiens, UniProt P11712); enzyme activity, inhibitor; human, liver microsomes): 0.19 µM
CC(C)C[C@H](NC(=O)[C@H](Cc1ccc(CN)cc1)NC(=O)[C@H](Cc1ccccc1)N=[N+]=[N-])C(=O)N[C@H](C(=O)[C@@]1(C)CO1)C1CCCCC1 — IC50 (PSMB7 (Homo sapiens, UniProt Q99436); inhibitor, competitive ABPP; Raji cell lysate; constitutive proteasome β2c): 4.24 µM
CC(C)CNC(P(=O)(O)O)P(=O)(O)O — IC50 (polyphosphate kinase 2 (Cytophaga hutchinsonii, UniProt A0A6N4SMB5)): > 1000 µM
O=C(NCCCC[C@H](NS(=O)(=O)c1cccc(F)c1)C(=O)N[C@@H](Cc1c[nH]c2ccccc12)C(=O)NC1CCC1)c1cncc(OS(=O)(=O)F)c1 — IC50 (SIRT5; inhibitor, fluorogenic; 24 h preincubation, His-tagged enzyme 150 nM, with: NAD+ 500 µM): 10 ± 7 µM
CCCCNc1ccc(C(=O)C=C(O)C(F)(F)C(F)(F)F)cn1 — IC50 (Formate-nitrite transporter; L-lactate transport, inhibitor, fluorescence; yeast; pH 6.8, with: L-lactate 1 mM): 0.036 ± 0.02 µM
O=C(O)CCn1c(=O)oc2cc(Cl)c(Cl)cc21 — IC50 (PDE4B (Homo sapiens, UniProt Q07343); enzyme activity, inhibitor): > 158 µM
CCCCCCCCCCCCCCCCCC(=O)NC[C@H]1CC[C@H](C(=O)N[C@@H](CCC(=O)NCCCOCCOCCOCCCNC(=O)COCC(=O)N[C@@H](Cc2ccc(O)cc2)C(=O)NC(C)(Cc2ccccc2)C(=O)N[C@@H](CC(C)C)C(=O)N[C@@H](CCCC)C(=O)N[C@@H](CCCNC(=N)N)C(=O)N2CCC[C@H]2C(=O)N[C@@H](CCCNC(=N)NC)C(=O)N[C@@H](CC(N)=O)C(N)=O)C(=O)O)CC1 (some centres unmarked) — IC50 (Neuromedin-U receptor 1 (Mus musculus, UniProt O55040); IP-1 accumulation, antagonist; 30 min preincubation, with: 0.8 nM mouse NMU-23): 0.027 µM
CC[C@H](C)[C@H](NC(=O)[C@@H]1CCCN1C(=O)CNC(=O)[C@H](Cc1ccccc1)NC(=O)[C@@H]1CCCN1C(=O)[C@H](CC(=O)O)NC(=O)[C@H](Cc1ccccc1)NC(=O)[C@H](CCCNC(=N)N)NC(=O)[C@H](C)NC(=O)CNC(=O)[C@@H]1CCCN1C(=O)[C@@H]1CCCN1C(=O)[C@@H](NC(=O)[C@H](C)NC(=O)CNC(=O)[C@@H]1CCCN1C(=O)[C@@H]1CCCN1C(=O)[C@@H](N)CC(C)C)C(C)C)C(=O)NCC(=O)N[C@H](C(=O)O)[C@@H](C)O — IC50 (Proteasome subunit beta type-3/PSMB7 (Homo sapiens, UniProt P49720+Q99436); trypsin-like activity, inhibitor; human proteasome 10 nM; with: Boc-LRR-AMC): < 10 µM
CCN(N=Cc1cnc2ccc(Br)cn12)S(=O)(=O)c1cc([N+](=O)[O-])ccc1C — IC50 (PIK3CA (Homo sapiens, UniProt P42336, H855E); enzyme activity, inhibitor): 0.166 µM
CC[C@H](C)[C@@H]1NC(=O)[C@@H]2CCCN2C(=O)[C@@H](CS)NC(=O)[C@H](CC(C)C)NC(=O)[C@@H](CCCNC(=N)N)NC(=O)[C@@H]([C@H](C)O)NC(=O)C(C)(C)NC(=O)[C@@H]2CCCN2C1=O — IC50 (blaNDM-1; enzyme activity, inhibitor, absorbance): 17.5 µM
CN(C(=O)c1ccn2ncc(-c3ccc(C(N)=O)cc3)c2c1)c1ccc(C#N)cn1 — IC50 (Phosphatidylinositol 4-kinase (Cryptosporidium parvum, UniProt Q5CVD3, H1037Y); inhibitor): 0.011 ± 0.0019 µM
